Measurements collected from several papers.
Numbered parts are unrelated; each lists some results of a single study. Positions count from the first letter of the parent shown.

Set 1
Target: CCNE1, cyclin fold, Cln2 fusion (human)
Technique: yeast growth competition, sequencing
Sample: yeast
Notes: weak parent motif
Reference: not given
Direction: higher = stronger binding
Quantity: normalised enrichment score
Parent: REV3L docking peptide (human); PPVIIKYIIINRF
R12A: 0.694
I8A: 0.313
N11A: 0.465
I5A: 0.145
P1A: 0.709
K6A: 0.177

Set 2
Target: Centromere-binding protein 1, full length, N-terminal tag (CBF1, Saccharomyces cerevisiae, UniProt P17106, residues 1-351)
UniProt P17106, sequence (whole entry, looked up): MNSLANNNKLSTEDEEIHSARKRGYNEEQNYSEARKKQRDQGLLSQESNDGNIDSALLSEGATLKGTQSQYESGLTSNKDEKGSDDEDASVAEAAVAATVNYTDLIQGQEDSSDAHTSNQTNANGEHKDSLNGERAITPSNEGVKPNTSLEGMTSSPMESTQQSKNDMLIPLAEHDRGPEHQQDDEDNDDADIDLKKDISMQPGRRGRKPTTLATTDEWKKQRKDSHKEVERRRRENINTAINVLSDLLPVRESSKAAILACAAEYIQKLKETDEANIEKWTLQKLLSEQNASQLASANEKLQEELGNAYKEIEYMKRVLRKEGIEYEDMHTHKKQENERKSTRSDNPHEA
Technique: protein-binding microarray
Molecule type: double-stranded DNA, one strand shown
Sample: in vitro
Tested at: 0.8 µM
Notes: whole 60-bp probe, no competitor
Direction: higher = stronger binding
Quantity: fluorescence intensity
All sequences stand within: … GTCTTGATTCGCTTGACGCTGCTG
CTACTAGAATAGTATCACGTACAGTAGTTTAATTTC: 641 a.u.
GAAACCGATCCCAATGGTGACATGCAAAGAAAATAG: 572 a.u.
CTATTCCCTTCTCACGTGTCAATAAAGCATCACTTC: 5710 a.u.
GAATTTAATTCACGTGACCAGATAAGGGATTTATAG: 27300 a.u.
CTACATTGAATAAGTAACATCATGTGTCATTTTTTC: 1340 a.u.
CTAGTTAGAGATAGTGATGTTAGAAGACTTACCTTC: 485 a.u.
CTAAATTCGTAGGTGCAGGTGAGCATATTGCCGTTC: 560 a.u.
TGTACGAAGCTATTTTGTGACACTATAGTAGTTAGG: 538 a.u.
TGTACGAAGCTATATCACGTGAATATAGTAGTTAGG: 13900 a.u.
GAAAACTCCCACCAGGACGTGGTGGGAAATGCATAG: 486 a.u.
GAAATCATAATCATAATCGTGATATTGTACCAGTAG: 569 a.u.
CTAGTGGTCAGCAACCACGCAATACATCACATATTC: 568 a.u.
CTAGGGAATATAAGTATGGTGATGAGTATTACCTTC: 585 a.u.
CTACTGCGCGTATTTCACGCAATCTATACATAATTC: 534 a.u.
CCTAACTACTATACCCACATGACATAGCTTCGTACA: 945 a.u.
CTACAGAATAAGTCACACATGATATAAAAAGAATTC: 1380 a.u.
GAAGCGTTGAAGTGTCACCATTGCCTATCCTTTTAG: 496 a.u.
GAAATAAGTTCGCAGCATGTGGATTCAAGTCCATAG: 550 a.u.
CTACACCTTCCTTAGCACGGGTTCTTGCTGTCTTTC: 745 a.u.

Set 3
Target: ABI1, truncated, D143A, DHFR fusion (Arabidopsis thaliana)
Technique: DHFR PCA, deep sequencing
Sample: yeast
Notes: methotrexate growth selection, single substitutions
With: (+)-ABA 0.11 µM
Reference: wild-type fitted maximum
Direction: higher = stronger binding
Quantity: relative binding score
Parent: PYL1, truncated, DHFR fusion (Arabidopsis thaliana); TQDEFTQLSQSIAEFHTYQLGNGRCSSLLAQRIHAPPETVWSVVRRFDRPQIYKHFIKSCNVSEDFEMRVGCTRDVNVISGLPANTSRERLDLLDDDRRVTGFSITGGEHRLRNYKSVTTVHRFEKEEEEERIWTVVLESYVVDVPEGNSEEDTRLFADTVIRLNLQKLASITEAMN; partner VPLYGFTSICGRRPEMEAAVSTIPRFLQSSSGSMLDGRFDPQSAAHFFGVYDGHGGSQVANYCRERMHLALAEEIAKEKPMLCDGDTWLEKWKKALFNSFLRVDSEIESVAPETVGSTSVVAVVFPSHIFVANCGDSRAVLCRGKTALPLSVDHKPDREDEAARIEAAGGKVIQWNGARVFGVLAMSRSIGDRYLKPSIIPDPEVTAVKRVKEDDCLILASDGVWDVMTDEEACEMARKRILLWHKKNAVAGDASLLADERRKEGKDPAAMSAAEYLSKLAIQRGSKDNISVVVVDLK
Y53M: -2.25%
Q51F: 3.89%
V44C: 1.85%
V137P: -4.24%
A13S: 31.1%
G107D: 30.3%
T154L: 4.94%
A175I: 2.7%
S11P: 48.6%
D48G: 2.55%
R132F: 13.2%
D75P: 3.75%
E139W: 11.3%
H110D: 38.7%

Set 4
Target: RNA binding protein fox-1 homolog 2, RRM domain, GST-SBP tag (RBFOX2, Homo sapiens, UniProt O43251-10, residues 100-194)
Technique: RNA Bind-n-Seq
Molecule type: RNA
Sample: in vitro
Tested at: 365 nM
Notes: natural RNA segment, single round, ends assumed
Reference: no-protein control
Direction: higher = stronger binding
Quantity: RBNS enrichment (R)
All sequences stand within: GGGAGUUCUACAGUCCGACGAUC … UGGAAUUCUCGGGUGCCAA
Construct (chain): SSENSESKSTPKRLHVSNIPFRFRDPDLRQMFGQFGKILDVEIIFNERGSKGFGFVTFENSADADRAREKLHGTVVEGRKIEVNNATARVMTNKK
UCUAAGUAAAUCCUCAGUCUGGUCUAUAUUGUUACUUGCCUGUUUCCACUAGAAGGAGUCACCCAGGCAUUUAGUGAAUGAUAAUCCUAGAAGUUGAGUCUGAGUACAUC: 0.341
AUCCCUGACCAGAGACUAGGGUGCUCUGCCUCUAAUGGUUUCUGGGAUUUCUGUAGAGCUUGGCAGUUUCUGGCUCAUUUCUCUUGAGCACCGCACUAUUCUUGCCAUAG: 0.556
GCAGUGUCGCCAUGACUGAUCAUGGCUCUUGCAUUUUUGGGUAAAUGGAGACUUCCGGAUCCUGUCAGGGUGUCCCCCAUGCCUGGAAGAGGAGCUGGUGGCUGCCAGCC: 0.267
AUACUCUUGGUUGACAUCCCCUUCCUCAGCCCUCCCAGCCUACUCCCCAUCCCAGCUUUUAGAGGAUCUGCUCCACUGUCUCCUGGGGCAGUUGUGGGUCACUGUCCCUU: 0.707
UACUUUGAUAAAGCGUGUGCUUAAAGUGGUAUCACCAGUGAUUUCUAACAUGAUUUUAAAAAAAUAAAACCCCAAUUAAAAUGUUCUUUAAUAUUCAUUUAAUUUGUGCA: 7.49
CCCUCAAUAGUUGCCUUUUAGUGCUGUAAUAGUUAAAUCCUACAGCAUAAUCAAUAACUCGCAUAUGAAGUAAAAAGGAAUACUGUGAAAGGGGAGUACUCUUGUACAGC: 0.328
CACUCUUCCAAAAAGACAACAGAACUGGAAUGAGAGGCCUGGGUCUGUCUCCUGCCUUAGCAGGCCUAUCAAUUUCUUGUCAAUCUCUUUUUUUCCUUGCUCACAUUAAA: 0.779
UUCCUGCCCCCUCUGAGGCCUGGCUCUGUUUUAGGGAGAUCACUGGGCCCAGGCCUCAGCCCCAGUUCUACCUGGCUUGCUGUCACCGCUCUAGGGGUGGGGGACGUCCC: 0.539
AGGAACUGUAUUAAAGUUUAGUUUACUAUAGAUUGGUCCCCACUGAAGACUUUCUCCACUCUGACCAGAUUUAUAAAAUUUCUCCUUUCAUAGAUUUAGUCAGAAGCUGU: 0.613
UUCUGAUCACUCUAGCCACCGGAGGAUGAAAGGGAUCUUUUGCAUAGCAGAGGAUUUUAUACACAAAUAUAUUUUGUUUGUAAUGAGCCAUUCUCAAUAAAUAUUCUCAC: 0.329
AUAGAAAUAUUUGGGUUUAGAGCAUCUCAAAAGUGGGUAGAAUGUCCUUUGGGAUUUUGUUGCUCCGUUUAAACCAGGUGUAUUGUGACAUGAACAUGACUUUCCUAAAG: 2.17
UUAUUACCAAAAAUGACAGAAUAUUCUUGAUCAAAUGUCUAGAUAUAUUUUUAAUAUUUGGGGCAUGAGUUGUCCCUGUUUGAGAGUUCCCAUUACUAAUGUAGAAAUGU: 0.377

Set 5
Target: Interferon regulatory factor 5, full length, phosphomimetic (IRF5, Homo sapiens, UniProt Q13568-2, residues 1-514, S451D/S453D/S456D/S462D)
Technique: protein-binding microarray
Molecule type: double-stranded DNA, one strand shown
Sample: in vitro
Tested at: 940 nM top
Notes: 60-bp whole probe
With: salmon DNA 0.4 mg/ml
Reference: random background probes
Direction: higher = stronger binding
Quantity: fitted relative affinity
All sequences stand within: GCCTAGCAC … GTCTTGATTCGCTTGACGCTGCTG
TCATCGTAAGCAAAAATACTGTGCTAG: -0.171 z-score
GACGGTATCCTTTCCCTGACGTGCTAG: 0.57 z-score
TTAGGACTGGGGTTTCGGTGAGTGCTA: 3.72 z-score
GACGATTTCAGTTCCGAGGCGTGCTAG: 1.11 z-score
GACGGAATGGGGACTGGGGACGTGCTA: 0.0707 z-score
GACGGTATCCTACTGCAGACGTGCTAG: -0.011 z-score
GACGATATAAGACTGGAGACGTGCTAG: -0.572 z-score
TCCCTTTCAGTTTTCCTATGGTGCTAG: 2.68 z-score
GACGATTTCGGGTTTCAAGACGTGCTA: 0.935 z-score
GACGAACTGGGGAATGGAGACGTGCTA: 0.103 z-score
TTAGATTCCAGTTTCGAATAGTGCTAG: 3.96 z-score
GTGGAAATCAGTATGTTCCCGTGCTAG: -0.436 z-score
TCAATTTTTACCCTCCTACTGTGCTAG: 1.21 z-score

Set 6
Target: Ras GTPase-activating protein-binding protein 1, RRM domain (G3BP1, Homo sapiens, UniProt Q13283)
UniProt Q13283, sequence (whole entry, looked up): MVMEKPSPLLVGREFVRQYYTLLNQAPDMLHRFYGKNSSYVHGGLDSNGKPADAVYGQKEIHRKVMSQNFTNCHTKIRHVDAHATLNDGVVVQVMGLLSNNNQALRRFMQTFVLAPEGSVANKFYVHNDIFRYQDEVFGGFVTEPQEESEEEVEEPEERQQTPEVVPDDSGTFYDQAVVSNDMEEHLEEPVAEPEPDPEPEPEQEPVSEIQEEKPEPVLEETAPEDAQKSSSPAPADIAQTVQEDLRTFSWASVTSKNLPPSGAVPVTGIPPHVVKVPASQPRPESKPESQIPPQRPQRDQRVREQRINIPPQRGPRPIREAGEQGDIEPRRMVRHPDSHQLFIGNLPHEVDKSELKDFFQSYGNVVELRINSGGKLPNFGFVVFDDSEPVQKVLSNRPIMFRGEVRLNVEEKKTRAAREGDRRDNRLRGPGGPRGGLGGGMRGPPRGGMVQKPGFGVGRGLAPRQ
Technique: RNA Bind-n-Seq
Molecule type: RNA
Sample: in vitro
Tested at: 1 µM
Notes: whole 134-nt RNA, ends assumed
With: 150 mM KCl
Reference: input library
Direction: higher = stronger binding
Quantity: log2 enrichment
All sequences stand within: GGGAGUUCUACAGUCCGACGAUC … UGGAAUUCUCGGGUGUCAAGG
UCAAGUCCUGUGCUACACAUCGUAUGUACCGAAUCGGGAGGGAGGGUUUUUGGGAAAGUAUUAUGUUACGCCGUUCGGAUCUGCACUUCC: 0.737
CUCAAGUCCUGUGCUACACAUCGUAUGUACCGAAUCGGUGGUUUUUUUGGAGGAAAGUAUUAUGUUACGCCGUUCGGAUCUGCACUUCCA: -0.112
CAAGUCCUGUGCUACACAUCGUAUGUACCGAAUCGGGCCCGGCCCGGGGCCCGGGAAAGUAUUAUGUUACGCCGUUCGGAUCUGCACUUC: -0.751
ACCAUGCAGGUGGGCAUCUUUGGAAAGUGGGGCAAGGGGGGGAUAGGGAGGGGGGUAACACUUUGGGAACAGGUGGUCCCAGGUCGUUUC: -0.603
UGUCCCUGACUCUCCAUUUCCCCAUCUGAGUGGAUUUGGACCUAAUAGGGCACUGGAGCUGGUUCGAAUCCUGACUGGACUACUUGGCAA: 0.291
UAACUUUAGAGGAGGAUCUGAUGGAUAUGGUAGUGGACGUGGAUUUGGGGAUGGCUAUAAUGGGUAUGGAGGAGGACCUGGAGGUGGCAA: -0.656
ACCAUGCAGGUGGGCAUCUUUGGGAAGUGGGGCAAGGGGGGGAUAAAGAGGGGGGUAACACUUUGGGAACAGGUGGUCCCAGGUCGUUUC: -0.215
UUUCACUUCCAGCCAGCUGUGAAGAAGGUGAGCUUGCCUUCCAUCUUCCCCCCUAUCCGCCGCGUAUCUCCGUCGUCUGCAAGCGCGUGA: -0.0371
UGCCUCGGGAGGAGCUGUUUGUGACAUCCAAGCUGUGGAACACCAAGCACCACCCCGAGGAUGUGGAGCCUGCCCUCCGGAAGACUCUGG: -0.617
UACUCUCUCGGGGCUGGAAGCUUCCUGACUGAAGAUCUCUCUGCACUUGGGGUUCUUUCUAGAACAUUUUCUAGUCCCCCAACACCCUUU: -0.0112

Some of these lines once more (set 2):
GAAACCGATCCCAATGGTGACATGCAAAGAAAATAG: 572 a.u.
GAAATCATAATCATAATCGTGATATTGTACCAGTAG: 569 a.u.
CCTAACTACTATACCCACATGACATAGCTTCGTACA: 945 a.u.
CTACACCTTCCTTAGCACGGGTTCTTGCTGTCTTTC: 745 a.u.
CTACTGCGCGTATTTCACGCAATCTATACATAATTC: 534 a.u.
TGTACGAAGCTATTTTGTGACACTATAGTAGTTAGG: 538 a.u.
CTAGTGGTCAGCAACCACGCAATACATCACATATTC: 568 a.u.
CTATTCCCTTCTCACGTGTCAATAAAGCATCACTTC: 5710 a.u.
GAAGCGTTGAAGTGTCACCATTGCCTATCCTTTTAG: 496 a.u.
CTACATTGAATAAGTAACATCATGTGTCATTTTTTC: 1340 a.u.
CTAGGGAATATAAGTATGGTGATGAGTATTACCTTC: 585 a.u.
GAAAACTCCCACCAGGACGTGGTGGGAAATGCATAG: 486 a.u.
